Assay results gathered from unrelated publications.
Lines come from different studies, so protocols differ.
Organism: Escherichia coli

| Compound | assay | test system | conditions | MIC |
| --- | --- | --- | --- | --- |
| CCCCCCCC[N+](C)(C)CCCCCCCCCCOc1cc(OCCCCCCCCCC[N+](C)(C)CCCCCCCC)cc(OCCCCCCCCCC[N+](C)(C)CCCCCCCC)c1.[Br-].[Br-].[Br-] |  | MC4100 |  | 16 µM |
| COc1nc(C(=O)Nc2ccc(C(=O)O)c(O)c2OC)ccc1NC(=O)c1ccc(NC(=O)[C@H](Cc2c[nH]nn2)NC(=O)c2ccc(NC(=O)/C(C)=C/c3ccc(O)cc3)cc2)cc1 | broth microdilution | ciprofloxacin-resistant |  | 0.25 µg/mL |
| CC[C@H]1OC(=O)[C@H](C)[C@@H](OC(=O)Cc2ccc(N)cc2)[C@H](C)[C@@H](O[C@@H]2O[C@H](C)C[C@H](N(C)C)[C@H]2O)[C@](C)(OC)C[C@@H](C)C(=O)[C@H](C)[C@@H](O)[C@]1(C)O | microbial growth | ATCC25922 |  | > 32 µg/mL |
| O=[N+]([O-])c1cc(Cl)c2cccnc2c1O | microbial growth, broth dilution | ATCC35218 |  | 8 µg/mL |
| COc1cc(C(=O)O)ccc1NC(=O)c1ccc(NC(=O)c2ccc(NC(=O)[C@H](Cc3c[nH]nn3)NC(=O)c3ccc(NC(=O)/C(C)=C/c4ccc(O)cc4)cc3)cc2)cc1 | broth microdilution | BW25113 |  | 0.063 µg/mL |
| CC[C@H]1OC(=O)[C@H](C)[C@@H](OC(=O)Cc2c(F)cc([N+](=O)[O-])cc2F)[C@H](C)[C@@H](O[C@@H]2O[C@H](C)C[C@H](N(C)C)[C@H]2O)[C@](C)(OC)C[C@@H](C)C(=O)[C@H](C)[C@@H](O)[C@]1(C)O |  | DSM 30083 | added: colistin sulfate at 0.1 x MIC | 32 µM |
| COc1c(NC(=O)c2ccc(NC(=O)c3ccc(NC(=O)[C@H](Cc4c[nH]nn4)NC(=O)c4ccc(NC(=O)/C(C)=C/c5ccc(O)cc5)cc4)cc3)cc2O)ccc(C(=O)O)c1O | broth microdilution | DSM 1116 |  | 0.125 µg/mL |
| CCn1cc(/C=C/c2ccc3ccccc3[n+]2CC)c2ccccc21 | microbial growth, broth dilution | 780 |  | 4 µg/mL |
| COc1c(NC(=O)c2ccc(NC(=O)c3ccc(NC(=O)[C@H](CC#N)NC(=O)c4ccc(NC(=O)/C(C)=C/c5ccc(O)cc5)cc4)cc3)c(OC)c2O)ccc(C(=O)O)c1O | broth microdilution | ciprofloxacin-resistant |  | 0.125 µg/mL |
| CN[C@H](CC(C)C)C(=O)N[C@H]1C(=O)N[C@@H](CC(N)=O)C(=O)N[C@H]2C(=O)N[C@H]3C(=O)N[C@H](C(=O)N[C@H](C(=O)NCc4cn(CC(=O)N[C@H](C(=O)N[C@@H](CCN)C(=O)N[C@H]5CCNC(=O)[C@H]([C@@H](C)O)NC(=O)[C@H](CCN)NC(=O)[C@H](CCN)NC(=O)[C@H](CC(C)C)NC(=O)[C@@H](CC(C)C)NC(=O)[C@H](CCN)NC5=O)[C@@H](C)O)nn4)c4cc(O)cc(O)c4-c4cc3ccc4O)[C@H](O)c3ccc(c(Cl)c3)Oc3cc2cc(c3O[C@@H]2O[C@H](CO)[C@@H](O)[C@H](O)[C@H]2O[C@H]2C[C@](C)(N)[C@H](O)[C@H](C)O2)Oc2ccc(cc2Cl)[C@H]1O | broth microdilution | ATCC 35218, cation-adjusted Mueller-Hinton broth | 18 to 20 h, 37 °C, 0.002% polysorbate 80 | 16 µg/mL |
| Nc1nc2[nH]nc(CCC(=O)O)c(=O)c2c(=O)[nH]1 | microbial growth, broth dilution | BW25113 | 18 h | > 100 µg/mL |
| C=CCOc1c(C)c(OC)c(C(=O)/C=C/c2ccccc2)c(OCC=C)c1C | microbial growth, broth dilution | ATCC25922 |  | 5000 µg/mL |
| CC[C@H]1OC(=O)[C@H](C)[C@@H](OC(=O)Cc2ccccc2Cl)[C@H](C)[C@@H](O[C@@H]2O[C@H](C)C[C@H](N(C)C)[C@H]2O)[C@](C)(OC)C[C@@H](C)C(=O)[C@H](C)[C@@H](O)[C@]1(C)O |  | lpxC |  | > 32 µg/mL |
| COc1ccc2ccc(O)c(/C=N/[C@H]3CCCC[C@H]3/N=C/c3ccc(F)cc3O)c2c1 | microbial growth, broth dilution |  |  | > 40 µM |
| CC[C@H]1OC(=O)[C@H](C)[C@@H](OC(=O)Cc2ccc([N+](=O)[O-])cc2)[C@H](C)[C@@H](O[C@@H]2O[C@H](C)C[C@H](N(C)C)[C@H]2O)[C@](C)(OC)C[C@@H](C)C(=O)[C@H](C)[C@@H](O)[C@]1(C)O |  | tolC |  | 2 µg/mL |
| COc1cc(C(=O)Nc2ccc(C(=O)O)c(O)c2)ccc1NC(=O)c1ccc(NC(=O)[C@H](Cc2c[nH]nn2)NC(=O)c2ccc(NC(=O)/C(C)=C/c3ccc(O)cc3)cc2)cc1 | broth microdilution | ciprofloxacin-resistant |  | 1 µg/mL |
| CCC(CC)c1cc(CCN2CCCN(S(=O)(=O)c3ccc4ccccc4c3)CC2)nc(-c2ccccn2)n1 | microbial growth, broth dilution | ATCC25922 |  | > 64 µg/mL |
| CCCCCCCC(=O)Oc1c(C)c(OC)c2c(c1C)OC(=O)[C@@H](CCCCCC)[C@]2(O)/C=C/c1ccccc1 (racemic) | microbial growth, broth dilution | ATCC25922 |  | 5000 µg/mL |

| Compound | assay | test system | conditions | MIC |
| --- | --- | --- | --- | --- |
| COc1c(NC(=O)c2ccc(NC(=O)c3ccc(NC(=O)[C@H](Cc4c[nH]nn4)NC(=O)c4ccc(NC(=O)/C(C)=C/c5ccc(O)cc5)cc4)cc3)cc2)ccc(C(=O)O)c1O | broth microdilution | ciprofloxacin-resistant |  | 0.5 µg/mL |
| CC1(C)[C@H](NC(=O)/C(=N\OC2(C(=O)O)CCCC2)c2csc(N)n2)C(=O)N1OS(=O)(=O)O | agar dilution | 16-1, ESBL-producing |  | 0.25 µg/mL |
| CN[C@H](CC(C)C)C(=O)N[C@H]1C(=O)N[C@@H](CC(N)=O)C(=O)N[C@H]2C(=O)N[C@H]3C(=O)N[C@H](C(=O)N[C@H](C(=O)NCc4cn(CCCCC(=O)N[C@H](C(=O)N[C@@H](CCN)C(=O)N[C@H]5CCNC(=O)[C@H]([C@@H](C)O)NC(=O)[C@H](CCN)NC(=O)[C@H](CCN)NC(=O)[C@H](CC(C)C)NC(=O)[C@@H](CC(C)C)NC(=O)[C@H](CCN)NC5=O)[C@@H](C)O)nn4)c4cc(O)cc(O)c4-c4cc3ccc4O)[C@H](O)c3ccc(c(Cl)c3)Oc3cc2cc(c3O[C@@H]2O[C@H](CO)[C@@H](O)[C@H](O)[C@H]2O[C@H]2C[C@](C)(N)[C@H](O)[C@H](C)O2)Oc2ccc(cc2Cl)[C@H]1O | broth microdilution | ATCC 35218, cation-adjusted Mueller-Hinton broth | 18 to 20 h, 37 °C, 0.002% polysorbate 80 | 16 µg/mL |
| CC(C)Oc1c(NC(=O)c2ccc(NC(=O)C(CC(N)=O)NC(=O)c3ccc(NC(=O)c4ccc(C#N)cc4)cc3)cc2)ccc(C(=O)Nc2ccc(C(=O)O)cc2)c1O (centres unmarked) | microbial growth | BW25113 |  | 0.1 µg/mL |
| COc1cc(C(=O)O)ccc1NC(=O)c1ccc(NC(=O)c2ccc(NC(=O)[C@H](Cc3c[nH]nn3)NC(=O)c3ccc(NC(=O)/C(C)=C/c4ccc(O)cc4)cc3)cc2)c(OC)c1 | broth microdilution | ciprofloxacin-resistant |  | 2 µg/mL |
| CC[C@H]1OC(=O)[C@H](C)[C@@H](OC(=O)Cc2ccc3c(c2)OCO3)[C@H](C)[C@@H](O[C@@H]2O[C@H](C)C[C@H](N(C)C)[C@H]2O)[C@](C)(OC)C[C@@H](C)C(=O)[C@H](C)[C@@H](O)[C@]1(C)O |  | tolC |  | 2 µg/mL |
| COc1nc(C(=O)Nc2ccc(C(=O)O)nc2OC)ccc1NC(=O)c1ccc(NC(=O)[C@H](Cc2c[nH]nn2)NC(=O)c2ccc(NC(=O)/C(C)=C/c3ccc(O)cc3)cc2)cc1 | broth microdilution | BW25113 |  | 1 µg/mL |
| CCCCCCCC[N+](C)(C)CCCCCCCCOc1cc(OCCCCCCCC[N+](C)(C)CCCCCCCC)cc(OCCCCCCCC[N+](C)(C)CCCCCCCC)c1.[Br-].[Br-].[Br-] |  | MC4100 |  | 1 µM |
| CC[C@H](C)[C@H](NC(=O)[C@@H](CCCNC(=N)N)NC(=O)[C@H](CCCNC(=N)N)NC(=O)[C@@H]1CCCN1C(=O)[C@@H]1CCCN1C(=O)[C@H](CCCNC(=N)N)NC(=O)[C@@H]1CCCN1C(=O)[C@H](CCCNC(=N)N)NC(=O)[C@@H]1CCCN1C(=O)[C@H](CC(C)C)NC(=O)[C@H](Cc1ccc(O)cc1)NC(=O)[C@@H]1CCCN1C(=O)[C@@H]1CCCN1C(=O)[C@H](CCCNC(=N)N)NC(=O)[C@H](CC(=O)O)NC(=O)[C@@H](N)C(C)C)C(=O)N[C@@H](Cc1ccc(O)cc1)C(=O)N[C@@H](CC(N)=O)C(=O)N[C@H](CCCNC(=N)N)C(N)=O | broth microdilution | BW25113 | 18 h, 37 °C, 25% MHB2 | 8 µg/mL |
| CCCCCCCCCCn1cc[n+](CCCCCCOc2cc(OCCCCCC[n+]3ccn(CCCCCCCCCC)c3)cc(OCCCCCC[n+]3ccn(CCCCCCCCCC)c3)c2)c1.[Br-].[Br-].[Br-] |  | MC4100 |  | 4 µM |
| CC1(C)[C@H](NC(=O)/C(=N\OCc2c(Cl)cccc2Cl)c2nsc(N)n2)C(=O)N1OS(=O)(=O)O | agar dilution | 16-1, ESBL-producing |  | 4 µg/mL |
| C[C@H](CS)C(=O)Nc1cccc(-c2nn[nH]n2)c1 | broth microdilution | DH5α pET28-lacUV5 control | 100 µM | > 64 µg/mL |
| CCCCCCCCCCCCCCCCCCn1cc(CN(CCC(=O)NCCN(CCC(=O)NCCN(CCC(=O)NCCN(C)C)CCC(=O)NCCN(C)C)CCC(=O)NCCN(CCC(=O)NCCN(C)C)CCC(=O)NCCN(C)C)CCC(=O)NCCN(CCC(=O)NCCN(CCC(=O)NCCN(C)C)CCC(=O)NCCN(C)C)CCC(=O)NCCN(CCC(=O)NCCN(C)C)CCC(=O)NCCN(C)C)nn1 |  | AR Bank 0349, LB broth | 18 h | 6 µg/mL |
| COc1ccc2ccc(O)c(/C=N/[C@H]3CCCC[C@H]3/N=C/c3ccc(C)cc3O)c2c1 | microbial growth, broth dilution |  | clinical isolate | > 40 µM |
| CC1(C)[C@H](NC(=O)/C(=N\OC2(C(=O)O)CC2)c2nsc(N)n2)C(=O)N1OS(=O)(=O)O | agar dilution | 16-1, ESBL-producing |  | 0.5 µg/mL |
| COc1ccc2ccc(O)c(/C=N/[C@H]3CCCC[C@H]3/N=C/c3cccc(F)c3O)c2c1 | microbial growth, broth dilution |  |  | > 40 µM |
| Cn1nc(CCC#N)c(=O)c2c(=O)[nH]c(N)nc21 | microbial growth, broth dilution | BW25113 | 18 h | 50 µg/mL |
